# Experimental data pooled from the literature.
# Each line is one published result; not all experiments were run side by side. “And” joins repeats or separate records; there may be more than shown. ± gives the spread as reported.
# MAPT: Microtubule-associated protein tau (MAPT, Homo sapiens, UniProt P10636)
# CASP8: Caspase-8 (CASP8, Homo sapiens, UniProt Q14790)
# CASP10: Caspase-10 (CASP10, Homo sapiens, UniProt Q92851)
# HSD3B1: 3 beta-hydroxysteroid dehydrogenase/Delta 5-->4-isomerase type 1 (HSD3B1, Homo sapiens, UniProt P14060)
# PTPN11: Tyrosine-protein phosphatase non-receptor type 11 (PTPN11, Homo sapiens, UniProt Q06124)
Structure (SMILES),target,test,system,setting,scale,measurement,result
CC[C@H](C)[C@H](NC(=O)[C@@H](NC(=O)[C@@H](NC(=O)[C@@H](NC(=O)[C@@H](N)CCCCN)C(C)C)C(C)C)C(C)C)C(=O)N[C@H](C(N)=O)[C@@H](C)O,MAPT,"fibril formation, ThT fluorescence",,"5-fold of tau, at plateau, with: wild-type tau 10 µM, heparin",baseline: untreated,ThT fluorescence,33 ± 10%
CC(=O)N[C@@H](CC(=O)O)C(=O)N[C@@H](CCC(=O)O)C(=O)N[C@@H](CC(C)C)C(=O)N[C@@H](CC(=O)O)C(=O)COC(=O)c1c(C)cccc1C,CASP8,"enzyme activity, inhibitor",,,,kinact/KI,798000 M⁻¹ s⁻¹
N=C(N)NCCS(=O)(=O)O,"SLC6A6 (Homo sapiens, UniProt P31641, Y138A)","binding, microscale thermophoresis",,"31.3 µM, room temperature, with: 50 nM labelled protein",higher = more binding,normalised MST signal,0.0449
CC(C=CC=C(C)C=CC1=C(C)CCCC1(C)C)=CC=O,"Rhodopsin (RHO, Homo sapiens, UniProt P08100, E181K)","immunostaining, measured: opsin",COS-7 transfected,"10.00 µM, unit not given",baseline: surface over total stained cells,plasma membrane localization,0.69
CC[C@H](C)[C@@H]1NC(=O)[C@H](Cc2ccccc2)NC(=O)[C@H](CCC(=O)O)NC(=O)[C@H](CCCNC(=N)N)NC(=O)CNC(=O)[C@@H](NC(=O)[C@H](CC(C)C)NC(=O)[C@H](CCCNC(=N)N)NC(=O)[C@@H](NC(=O)CNC(=O)[C@H](Cc2ccc(O)cc2)NC(=O)[C@@H]2CCCN2C(=O)[C@H](C)NC(=O)[C@H](C)NC(=O)[C@@H](N)CCCNC(=N)N)C(C)C)CSSC[C@@H]2NC(=O)[C@@H](NC(=O)[C@H](CO)NC(=O)[C@H](CO)NC(=O)[C@H](CO)NC(=O)[C@H](CC(C)C)NC(=O)CNC(=O)[C@H](C)NC(=O)[C@H](CC(C)C)NC(=O)[C@@H](NC(=O)[C@@H](N)CC(=O)O)C(C)C)CSSC[C@H](NC(=O)CNC(=O)[C@H](Cc3c[nH]c4ccccc34)NC(=O)[C@H](CCCCN)NC2=O)C(=O)N[C@@H](CO)C(=O)N[C@@H](CCCCN)C(=O)N[C@@H](CO)C(=O)N[C@@H](CCC(=O)O)C(=O)N[C@@H]([C@@H](C)CC)C(=O)N[C@@H](CO)C(=O)N[C@@H](CO)C(=O)N[C@@H](CC(C)C)C(=O)N[C@H](C(=O)O)CSSC[C@@H](C(=O)NCC(=O)NCC(=O)N[C@@H](CO)C(=O)N[C@@H](CCCNC(=N)N)C(=O)N[C@@H](Cc2c[nH]c3ccccc23)C(=O)O)NC(=O)[C@H]([C@@H](C)O)NC(=O)[C@H](Cc2ccccc2)NC(=O)[C@H]([C@@H](C)CC)NC(=O)[C@H](C(C)C)NC(=O)[C@H](C)NC(=O)[C@H](CCCNC(=N)N)NC1=O,"RXFP4 (Homo sapiens, UniProt Q8TDU9, W279A)",,,W279A mutant,baseline: wild type,change in Emax,-57.6% and -52.7% and -68.6%
CC[C@H](C)[C@H](NC(=O)[C@H](CCC(=O)O)NC(=O)[C@H](Cc1ccc(I)cc1)NC(C)=O)C(=O)N[C@@H](CC(=O)O)C(=O)COC(=O)c1c(C)cccc1C,CASP10,"enzyme activity, inhibitor",,,,kinact/KI,235000 M⁻¹ s⁻¹
CCCCCC(O)/C=C/C=O (centres unmarked),"ALDH1A2 (Homo sapiens, UniProt O94788)",acylphosphate-ATP probe SILAC-ABPP,ZAK-transfected HEK293T,"100 µM, with: acylphosphate-ATP probe",baseline: DMSO over compound-treated,probe labelling ratio,0.56
O=c1cc(Cn2ccnc2)c2cc(O)ccc2o1,"ADRA1A (Homo sapiens, UniProt P35348)","intracellular Ca2+ mobilization, agonist",COS-7,500 µM,baseline: 3 µM ionomycin,agonist activity,7.31 ± 0.74%
CC(=O)N[C@@H](CCC(C)C)C(=O)N[C@H](C(=O)N[C@@H](CO)C(=O)N[C@@H](CC(=O)O)C(=O)COC(=O)c1c(C)cccc1C)C(C)(C)C,CASP10,"enzyme activity, inhibitor",,,,kinact/KI,178000 M⁻¹ s⁻¹
CNCc1ccc(-c2coc3cc(O)ccc3c2=O)cc1,HSD3B1,[3H]-DHEA conversion,LNCaP,"0.1 µM, normalized to protein, unit not given",baseline: vehicle,DHEA metabolism,0
C=C1C(=O)C2(C(=O)N3CCN(c4ccc(Br)cc4)CC3)CC(=O)CC1C2 (racemic),PTPN11,"phosphatase activity, irreversible inhibitor",,with: pNPP,,kinact/KI,367 M⁻¹ s⁻¹
CC[C@H](NC(=O)[C@H](CC(C)C)NC(C)=O)C(=O)N[C@@H](CCC1CCCCC1)C(=O)N[C@@H](CC(=O)O)C(=O)COC(=O)c1c(C)cccc1C,CASP10,"enzyme activity, inhibitor",,,,kinact/KI,148000 M⁻¹ s⁻¹
COC(=O)[C@@]1(C)C=C(C(=O)Nc2cccc(C(=O)Nc3ccc(Nc4nccc(-c5cccnc5)n4)c(C)c3)c2)C(=O)CC1,human PDGFR,33PanQinase,,1 µM,baseline: control,remaining activity,88%
N=C(N)NCCC[C@H](NC(=O)[C@@H]1CCCN1C(=O)[C@H](CCCNC(=N)N)NC(=O)[C@@H]1CCCN1C(=O)[C@H](CCCNC(=N)N)NC(=O)[C@@H]1CCCN1C(=O)[C@H](CCCNC(=N)N)NC(=O)[C@@H]1CCCN1C(=O)[C@H](CCCNC(=N)N)NC(=O)[C@@H]1CCCN1C(=O)[C@H](CCCNC(=N)N)NC(=O)[C@@H]1CCCN1C(=O)[C@H](CCCNC(=N)N)NC(=O)[C@@H]1CCCN1C(=O)[C@H](CCCNC(=N)N)NC(=O)[C@@H]1CCCN1C(=O)[C@H](CCCNC(=N)N)NC(=O)[C@@H]1CCCN1C(=O)[C@H](CCCNC(=N)N)NC(=O)[C@@H]1CCCN1C(=O)[C@H](CCCNC(=N)N)NC(=O)[C@@H]1CCCN1C(=O)[C@H](CCCNC(=N)N)NC(=O)[C@@H]1CCCN1C(=O)[C@H](CCCNC(=N)N)NC(=O)[C@@H]1CCCN1C(=O)[C@H](CCCNC(=N)N)NC(=O)[C@@H]1CCCN1C(=O)[C@H](CCCNC(=N)N)NC(=O)[C@@H]1CCCN1C(=O)[C@H](CCCNC(=N)N)NC(=O)[C@@H]1CCCN1C(=O)[C@H](CCCNC(=N)N)NC(=O)[C@@H]1CCCN1C(=O)[C@H](CCCNC(=N)N)NC(=O)[C@@H]1CCCN1C(=O)[C@H](CCCNC(=N)N)NC(=O)[C@@H]1CCCN1C(=O)[C@H](CCCNC(=N)N)NC(=O)[C@@H]1CCCN1C(=O)[C@H](CCCNC(=N)N)NC(=O)[C@@H]1CCCN1C(=O)[C@H](CCCNC(=N)N)NC(=O)[C@@H]1CCCN1C(=O)[C@H](CCCNC(=N)N)NC(=O)[C@@H]1CCCN1C(=O)[C@H](Cc1ccc(O)cc1)NC(=O)[C@H](CO)NC(=O)CN)C(=O)O,"Nucleophosmin (NPM1, Homo sapiens, UniProt P06748)",SANS,,"3 molar excess over NPM1, 25 °C",,maximum particle dimension,318 Å
CCCCCCCCCCCCC/C=C/C=O,"Desumoylating isopeptidase 1 (DESI1, Homo sapiens, UniProt Q6ICB0)",competitive isoTOP-ABPP,Ramos soluble proteome,"100 µM, with: iodoacetamide probe","baseline: DMSO over compound-treated, higher = stronger cysteine blockade",isoTOP-ABPP competition ratio,1
O=C(O)c1ccc(-c2coc3cc(O)ccc3c2=O)cc1,HSD3B1,[3H]-DHEA conversion,LNCaP,"0.1 µM, normalized to protein, unit not given",baseline: vehicle,DHEA metabolism,0
COc1cc(C2C(NC(=O)c3ccc(NC(=O)OC(C)(C)C)cc3)(C(=O)O)C(c3ccc(OC(=O)c4cccs4)c(OC)c3)C2(NC(=O)c2ccc(NC(=O)OC(C)(C)C)cc2)C(=O)O)ccc1OC(=O)c1cccs1 (centres unmarked),"GLP1R (Homo sapiens, UniProt P43220, K197A)","cAMP accumulation, agonist",,receptor mutant,baseline: wild type,Emax,14.6 ± 1.82%
C1=[N+]2CCCC[N+]3=Cc4ccc5[n]4[Au-]23[n]2c1ccc2-c1nc2ccccc2nc1-5.F[P-](F)(F)(F)(F)F,"DNA topoisomerase 1 (TOP1, Homo sapiens, UniProt P11387)",,,,,Hill coefficient,1.7
C[Si]1(C[C@H](CN)CC(=O)O)CCCC1,"GALR2 (Homo sapiens, UniProt O43603)","enzyme activity, inhibitor",,70 µM,,inhibition,-12%
CC(=O)N[C@@H](CC(=O)O)C(=O)N[C@@H](Cc1ccc(I)cc1)C(=O)N[C@@H](C)C(=O)N[C@@H](CC(=O)O)C(=O)COC(=O)c1c(C)cccc1C,CASP8,"enzyme activity, inhibitor",,,,kinact/KI,34000 M⁻¹ s⁻¹
CC[C@H](C)[C@H](NC(=O)[C@@H](NC(=O)[C@H](CCCCN)NC(=O)[C@@H](N)[C@@H](C)O)C(C)C)C(=O)N[C@@H](CC(C)C)C(=O)N[C@@H](Cc1c[nH]cn1)C(N)=O,MAPT,"fibril formation, ThT fluorescence",,"1-fold of tau, at plateau, with: wild-type tau 10 µM, heparin",baseline: untreated,ThT fluorescence,133 ± 15%
C#CCOC(=O)[C@@]1(C)C=C(C(=O)OC(C)(C)C)C(=O)CC1,"MAPK1 (Homo sapiens, UniProt P28482)","enzyme activity, D-SENSOR",,"0.1829 µM, mean of replicates",,normalized kinase activity,1.06
N#CN1CC[C@H](C(=O)Nc2nc3c(s2)CN(C(=O)Cn2cc(COCCOCCOCCOCCNC(=O)CCCC[C@@H]4SC[C@@H]5NC(=O)N[C@@H]54)nn2)CC3)C1,"USP24 (Homo sapiens, UniProt Q9UPU5)","probe binding, affinity probe, neutravidin pull-down LC-MS/MS","HEK293T, cell lysate","5 µM, 1 h, single replicate, unit not given",higher = more pulled down,iBAQ abundance,1.25e+06 and 378000 and 1.12e+06
CCOC(=O)C1CC(C)C2C=CC3CCN(C(=O)C4CCC5C=CC6(CCCN6C(=O)C(Cc6ccccc6Cl)NC(C)=O)C(=O)N54)C3C(=O)N12 (centres unmarked),"Ena/VASP-like protein, EVH1 domain (EVL, Homo sapiens, UniProt Q9UI08)",isothermal titration calorimetry,,,,ligand efficiency,-690 J/(mol·heavy atom)
O=C1c2sc(-c3ccc(N4CCC(F)C4)nc3F)nc2CCN1c1cccnc1 (centres unmarked),"TAR DNA-binding protein 43, aggregated (TARDBP, Homo sapiens, UniProt Q13148)",radioligand binding,control brain sarkosyl-insoluble extract,1.8 nM,,specific binding,-1 pM
Cc1cc(=O)oc2c(F)c(OP(=O)(O)O)c(F)cc12,PTPN11,"dephosphorylation, substrate",,,,Km,730 ± 40 µM
CCCCCCCCCCCCCCCC(=O)NCCCC[C@H](NC(=O)[C@H](CCC(=O)O)NC(=O)[C@H](Cc1ccc(O)cc1)NC(=O)[C@H](CCC(=O)O)NC(=O)COCC(=O)NCCCOCCOCCOCCCNC(=O)[C@H](Cc1c[nH]c2ccccc12)NC(=O)[C@H](CCCCN)NC(=O)[C@H](C)NC(=O)[C@H](CCCCNC(=N)N)NC(=O)[C@H](CCC(N)=O)NC(=O)[C@H](Cc1c[nH]cn1)NC(=O)[C@H](CCSC)NC(=O)[C@H](CC(C)C)NC(=O)[C@H](CCC(N)=O)NC(=O)[C@@H](NC(=O)[C@H](CCC(=O)O)NC(=O)C(C)(C)NC(=O)[C@@H](NC(=O)C(C)(C)N)C(C)C)[C@@H](C)CC)C(=O)N[C@@H](CCC(=O)O)C(=O)N[C@@H](Cc1ccc(O)cc1)C(=O)N[C@@H](CCC(=O)O)C(N)=O,"PTH1R (Homo sapiens, UniProt Q03431)",agonist,Saos-2 with cAMP reporter,"100 nM, 90 min, washout after 30 min ligand",higher = more cAMP,cAMP luminescence AUC,3100 a.u.
CC[C@H](C)[C@H](NC(=O)[C@H](CCCC(=O)O)NC(=O)[C@H](CC(=O)O)NC(C)=O)C(=O)N[C@@H](CC(=O)O)C(=O)COC(=O)c1c(C)cccc1C,CASP10,"enzyme activity, inhibitor",,,,kinact/KI,101000 M⁻¹ s⁻¹
C#CCCCCNC(=O)c1ccc(N(C(=O)C=C)c2ccc(Br)cc2)cc1,"ADP-ribosylhydrolase ARH3 (Homo sapiens, UniProt Q9NX46)","mass spectrometry profiling, measured: ADPRHL2",H460 cell lysate,"100 µM over 10 µM, UniProt Q9NX46",baseline: high over low concentration,reactivity ratio,1.86
